Measured values gathered from unrelated publications.
Numbered parts are unrelated; each lists some results of a single study. Values joined by “and” are separate records of one study, mostly repeats; a detail may differ.
Sequence of UniProt P07333 (whole entry, looked up): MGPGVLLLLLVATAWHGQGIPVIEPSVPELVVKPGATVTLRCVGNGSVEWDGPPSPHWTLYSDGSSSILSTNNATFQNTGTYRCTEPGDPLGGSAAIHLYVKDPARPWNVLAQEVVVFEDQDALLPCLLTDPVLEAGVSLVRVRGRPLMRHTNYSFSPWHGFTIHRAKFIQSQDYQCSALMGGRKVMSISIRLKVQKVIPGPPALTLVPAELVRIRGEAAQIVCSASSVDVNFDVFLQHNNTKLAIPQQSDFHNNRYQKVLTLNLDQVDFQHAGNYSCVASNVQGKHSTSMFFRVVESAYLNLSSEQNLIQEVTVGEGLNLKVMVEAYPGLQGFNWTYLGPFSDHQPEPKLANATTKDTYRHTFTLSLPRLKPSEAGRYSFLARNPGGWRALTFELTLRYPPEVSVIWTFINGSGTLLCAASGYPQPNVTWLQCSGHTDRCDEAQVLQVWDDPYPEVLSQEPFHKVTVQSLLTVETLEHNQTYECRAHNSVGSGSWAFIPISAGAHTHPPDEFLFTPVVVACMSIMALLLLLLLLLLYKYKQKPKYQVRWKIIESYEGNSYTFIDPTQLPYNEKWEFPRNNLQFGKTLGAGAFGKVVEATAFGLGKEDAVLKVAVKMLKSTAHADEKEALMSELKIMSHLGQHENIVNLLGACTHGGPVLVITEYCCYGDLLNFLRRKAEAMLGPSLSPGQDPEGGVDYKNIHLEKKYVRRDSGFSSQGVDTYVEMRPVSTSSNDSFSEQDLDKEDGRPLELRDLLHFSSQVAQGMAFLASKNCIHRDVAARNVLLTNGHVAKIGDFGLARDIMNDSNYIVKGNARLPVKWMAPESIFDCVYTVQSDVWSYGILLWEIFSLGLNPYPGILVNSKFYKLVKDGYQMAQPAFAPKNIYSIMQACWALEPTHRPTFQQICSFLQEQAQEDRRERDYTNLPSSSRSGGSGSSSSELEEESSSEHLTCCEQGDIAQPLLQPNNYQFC
Sequence of UniProt P42336 (whole entry, unmodified, looked up): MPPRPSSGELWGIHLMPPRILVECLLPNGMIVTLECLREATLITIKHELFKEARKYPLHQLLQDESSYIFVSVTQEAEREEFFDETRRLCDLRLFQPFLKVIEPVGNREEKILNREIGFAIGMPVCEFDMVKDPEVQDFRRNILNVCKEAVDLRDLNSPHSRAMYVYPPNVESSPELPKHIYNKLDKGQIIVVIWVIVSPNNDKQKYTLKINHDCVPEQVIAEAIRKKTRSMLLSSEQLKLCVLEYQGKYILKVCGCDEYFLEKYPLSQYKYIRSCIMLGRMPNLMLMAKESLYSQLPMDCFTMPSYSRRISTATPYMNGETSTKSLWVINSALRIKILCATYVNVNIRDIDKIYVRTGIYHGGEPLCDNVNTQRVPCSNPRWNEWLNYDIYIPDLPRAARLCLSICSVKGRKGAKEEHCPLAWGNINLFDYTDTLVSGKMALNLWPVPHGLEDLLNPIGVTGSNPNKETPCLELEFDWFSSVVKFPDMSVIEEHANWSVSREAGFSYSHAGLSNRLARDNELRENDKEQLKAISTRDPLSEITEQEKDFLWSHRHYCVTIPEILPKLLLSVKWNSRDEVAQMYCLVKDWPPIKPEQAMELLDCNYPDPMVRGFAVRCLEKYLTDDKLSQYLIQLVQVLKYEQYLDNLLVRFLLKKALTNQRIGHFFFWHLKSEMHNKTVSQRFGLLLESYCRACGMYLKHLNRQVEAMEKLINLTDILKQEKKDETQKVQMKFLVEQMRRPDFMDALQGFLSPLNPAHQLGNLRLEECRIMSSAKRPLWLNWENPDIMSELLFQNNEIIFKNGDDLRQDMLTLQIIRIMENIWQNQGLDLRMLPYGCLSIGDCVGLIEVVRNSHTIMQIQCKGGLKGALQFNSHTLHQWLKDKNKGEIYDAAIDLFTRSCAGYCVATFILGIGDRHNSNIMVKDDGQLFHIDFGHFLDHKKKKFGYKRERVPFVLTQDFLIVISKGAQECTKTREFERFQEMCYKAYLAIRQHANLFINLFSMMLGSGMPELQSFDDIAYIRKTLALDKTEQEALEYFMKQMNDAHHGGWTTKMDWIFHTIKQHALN
Sequence of UniProt Q9HC98 (whole entry, looked up): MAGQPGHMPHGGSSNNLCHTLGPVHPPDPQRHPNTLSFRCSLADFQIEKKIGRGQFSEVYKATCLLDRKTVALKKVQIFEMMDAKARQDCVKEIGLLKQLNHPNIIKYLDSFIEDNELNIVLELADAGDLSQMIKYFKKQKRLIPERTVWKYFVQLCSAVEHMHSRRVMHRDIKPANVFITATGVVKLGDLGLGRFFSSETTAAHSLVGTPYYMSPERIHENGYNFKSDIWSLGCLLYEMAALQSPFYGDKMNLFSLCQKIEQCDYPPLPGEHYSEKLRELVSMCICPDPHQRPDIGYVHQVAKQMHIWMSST

Study 1
Target: Serine/threonine-protein kinase PAK 3 (PAK3, Homo sapiens, UniProt O75914)
Sequence of UniProt O75914 (whole entry, looked up): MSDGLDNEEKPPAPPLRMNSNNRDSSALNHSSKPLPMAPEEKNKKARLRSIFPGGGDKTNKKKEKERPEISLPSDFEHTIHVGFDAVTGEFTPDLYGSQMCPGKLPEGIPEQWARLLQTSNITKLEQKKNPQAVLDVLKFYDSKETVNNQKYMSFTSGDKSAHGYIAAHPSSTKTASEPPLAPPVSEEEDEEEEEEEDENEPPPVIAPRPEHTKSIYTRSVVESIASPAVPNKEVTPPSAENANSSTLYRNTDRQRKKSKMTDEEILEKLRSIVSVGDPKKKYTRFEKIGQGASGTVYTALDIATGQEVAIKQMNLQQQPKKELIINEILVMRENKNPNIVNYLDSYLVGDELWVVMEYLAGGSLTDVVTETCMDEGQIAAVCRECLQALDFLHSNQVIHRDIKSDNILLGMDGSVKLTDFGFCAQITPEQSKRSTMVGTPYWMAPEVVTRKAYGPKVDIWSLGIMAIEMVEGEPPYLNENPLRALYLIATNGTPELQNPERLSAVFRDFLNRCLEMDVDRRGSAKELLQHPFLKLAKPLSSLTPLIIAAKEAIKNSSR
Effect on: enzyme activity
Action: inhibitor
Tested at: 0.5 µM
Reference: control
Compound | remaining activity [%]
COc1ccc(C(=O)Nc2sc3c(c2C(N)=O)CCCC3)cc1OC | 96.2
O=S(=O)(c1cccc2cnccc12)N1CCCNCC1 | 103
C#Cc1cccc(Nc2ncnc3cc(OCCOC)c(OCCOC)cc23)c1 | 106
Nc1ncnc2n[nH]c(Nc3ccc(F)cc3)c12 | 104
CO[C@H]1C[C@@H]2CC[C@@H](C)[C@@](O)(O2)C(=O)C(=O)N2CCCC[C@H]2C(=O)O[C@H]([C@H](C)C[C@@H]2CC[C@@H](O)[C@H](OC)C2)CC(=O)[C@H](C)/C=C(\C)[C@@H](O)[C@@H](OC)C(=O)[C@H](C)C[C@H](C)/C=C/C=C/C=C/1C | 102
COc1cc2nccc(Oc3ccc(NC(=S)NC(=O)c4ccccc4C)cc3)c2cc1OC | 99.7
O=C1NC(=O)C(c2cn(CCCO)c3ncccc23)=C1c1cnccn1 | 92.8
Cn1c2ccccc2c2c3c(c4c5ccccc5n(CCC#N)c4c21)CNC3=O | 122
CNC(=O)c1cc(Oc2ccc(NC(=O)Nc3ccc(Cl)c(C(F)(F)F)c3)cc2)ccn1 | 103
Cc1cccc(-c2[nH]c(C(C)(C)C)nc2-c2ccc3c(c2)OCO3)n1 | 95.9
CCOC(=O)c1c(C)[nH]c(/C=C2\C(=O)Nc3ccccc32)c1C | 99.1
Cc1ccc(NC(=O)c2ccc(CN3CCN(C)CC3)cc2)cc1Nc1nc(-c2cccnc2)cs1 | 106
COc1ccc(OC)c2c(=S)c3ccccc3[nH]c12 | 98
CN(C)c1ccc(C=C2C(=O)Nc3ccccc32)cc1 | 99

Study 2
Organism: Sarcocystis neurona
Effect on: parasite growth
Tested at: 10 µM
Time: 96 h
Notes: second screen
Reference: untreated
Compound | log2 fold change
OCc1cccnc1 | 0.41
CC1Cc2ccccc2N1NC(=O)c1ccc(Cl)c(S(N)(=O)=O)c1 (stereo not shown) | 0.61
CC(C)(C#N)c1cc(Cn2cncn2)cc(C(C)(C)C#N)c1 | 0.54
CCCCC[C@H](O)/C=C/[C@H]1[C@H](O)CC(=O)[C@@H]1CCCCCCC(=O)O | 0.59

Study 3
Cell line: HaCaT
Tested at: 100 µM
Time: 60 h
SMILES | viability [%]
N[C@@H](Cc1c[nH]c2ccccc12)C(=O)O | 121
CC(=O)OCC(COC(C)=O)OC(C)=O | 126
NC(=O)NO | 98.3
COc1ccccc1N1CCN(CC(O)COc2cccc3ccccc23)CC1 (stereo not shown) | 16.4

Study 4
SMILES: Cn1nc(C(=O)NCc2ccc(C(=O)O)cc2)cc1-c1ccc2[nH]ccc2c1
Effect on: cell-free assay
Method: competition with immobilised ligand
Tested at: 0.1 µM
target | remaining binding [%]
Macrophage colony-stimulating factor 1 receptor (CSF1R, Homo sapiens, UniProt P07333) | 100
Phosphatidylinositol 4,5-bisphosphate 3-kinase catalytic subunit alpha isoform (PIK3CA, Homo sapiens, UniProt P42336, C420R) | 84
Serine/threonine-protein kinase Nek6 (NEK6, Homo sapiens, UniProt Q9HC98) | 91

Study 5
Structure (SMILES): c1ccc(Oc2ccc(Nc3c4c(nc5ccccc35)CCC4)cc2)cc1
Organism: Leishmania donovani
test | system | conditions | inhibition
parasite killing | DD8, intracellular amastigotes | 2 µM, 72 h | 84% and 85%
parasite killing | DD8, intracellular amastigotes | 0.08 µM, 24 h | 4% and 5%
parasite growth, high-content imaging | MHOM/IN/80/DD8, amastigotes in THP-1 cells | 20 µM | 100%

Excerpt of the above (study 3):
SMILES | viability [%]
N[C@@H](Cc1c[nH]c2ccccc12)C(=O)O | 121
CC(=O)OCC(COC(C)=O)OC(C)=O | 126
NC(=O)NO | 98.3
